Measurements pooled from the literature.
A part holds a random share of what one study measured.

Study 1
Target: Prothrombin, mature alpha-thrombin (F2, Homo sapiens, UniProt P00734)
Technique: aptamer microarray, sandwich
Form: DNA with 2'F-ANA
Matrix: in vitro
Concentration: 200 nM
Notes: whole 15-mer aptamer, many near background
Added: Cy3 exosite-II aptamer, 400 nM
Direction: higher = stronger binding
Strand: GGTTGGTGTGGTTGG
Modification	mean fluorescence intensity [a.u.]
2'F-ANA at 2 3 5 7 8 10 11 12 13	58.9
2'F-ANA at 4 9	365
2'F-ANA at 8 9 15	609
2'F-ANA at 2 4 5 8 13 14 15	44
2'F-ANA at 1 2 7 10 12 13	63.7
2'F-ANA at 2 3 4 7 8 9 12 13 14 15	259
2'F-ANA at 3 4 5 6 10 14	47.9
2'F-ANA at 1 2 3 5 6 8 10 11 12 15	55.9
2'F-ANA at 4 5 6 7 11 12 14 15	73.2
2'F-ANA at 2 4 5 6 7 8 10 13 14	46.9
2'F-ANA at 3 4 6 8 9 10 12 14 15	183

Study 2
Target: Histone acetyltransferase KAT6A, winged helix 2, GST fusion (KAT6A, Homo sapiens, UniProt Q92794, residues 85-181)
Technique: protein binding microarray
Form: double-stranded DNA, one strand shown
Matrix: in vitro
Concentration: not given
Notes: 8-mer, flanks averaged, mean of 2 arrays, mostly near background
Baseline: not given
Direction: higher = stronger binding
Target sequence (chain): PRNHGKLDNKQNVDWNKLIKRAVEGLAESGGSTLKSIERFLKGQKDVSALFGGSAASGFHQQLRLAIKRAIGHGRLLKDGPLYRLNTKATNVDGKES
Strand	E-score
CACGAGCG	-0.0651
ACAATAGT	-0.000845
AGACTACG	-0.141
CGATACTC	-0.00325
GGTAAATA	-0.00483
CAGATACC	-0.0796
ATGCCAGC	0.0643
CAACCATA	0.03
CGACGTCA	0.103
AGTTCGGC	0.0532
GTCCCAAC	0.0149

Study 3
Target: Fragile X messenger ribonucleoprotein 1, C-terminal low-complexity region (Fmr1, Mus musculus, UniProt P35922)
Technique: RNA Bind-n-Seq
Form: RNA
Matrix: in vitro
Concentration: 200 nM
Notes: whole 134-nt RNA, ends assumed
Added: 150 mM KCl
Baseline: input library
Direction: higher = stronger binding
Strand	log2 enrichment
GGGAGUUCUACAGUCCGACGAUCUCCUGUGCUACACAUCGUAUGUACCGAAUCGGGUUUUUUGGGGUUUUUUGGUUUUUUGGAAAGUAUUAUGUUACGCCGUUCGGAUCUGCAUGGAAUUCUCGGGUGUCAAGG	0.186
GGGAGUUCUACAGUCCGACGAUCUCCUGUGCUACACAUCGUAUGUACCGAAUCGGGCCCCCCGGGGCCCCCCGGCCCCCCGGAAAGUAUUAUGUUACGCCGUUCGGAUCUGCAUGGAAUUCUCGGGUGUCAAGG	-0.237
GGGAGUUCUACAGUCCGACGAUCGCAGUAAGUAAAAACAAAUGGAAAUGCUUCGGAUAGUGGCAGGGGUGGGGGUUGCUAAGGAAAGGGUGGGAUGGGAGUGGGUAAAGAGUUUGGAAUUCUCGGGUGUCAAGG	0.419
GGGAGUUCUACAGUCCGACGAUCUGGCCCUGGUGGCAUGCAGGGAGGAAGAGGUGGCCUCAUGGAUCGUGGUGGUCCCGGUGGAAUGUUCAGAGGUGGCCGUGGUGGAGACAGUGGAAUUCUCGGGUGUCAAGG	-0.149
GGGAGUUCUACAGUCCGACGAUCUGUGAGCGGAGCCUGGAGGAGCUGCUGCACUACGUGGGCCAGCUGCGGGCUGAGCUGGCCAGCGCAGGUGGGUGGCCACCCUUGCAAGUGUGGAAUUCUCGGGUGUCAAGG	0.407
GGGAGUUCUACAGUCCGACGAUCGUCCUGUGCUACACAUCGUAUGUACCGAAUCGGGCCCCCGGCCCCCGGGGCCCCCGGGAAAGUAUUAUGUUACGCCGUUCGGAUCUGCACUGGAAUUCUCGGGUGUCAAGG	-0.957
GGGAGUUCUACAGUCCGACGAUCUUCUUACAUGUGUAAUCUUCUUCUCCUAGGGCGGCAGAACUCAUGACAAGAACAAGCUCUGUGGUGACACUGGAAGUAGCAAAGCAGGGUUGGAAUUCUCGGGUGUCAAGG	-0.0861
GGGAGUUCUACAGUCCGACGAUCUGUGCUACACAUCGUAUGUACCGAAUCGGGUUUUUUUGGGGUUUUUUUGGGGUUUUUUUGGGGAAAGUAUUAUGUUACGCCGUUCGGAUCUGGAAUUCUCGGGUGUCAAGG	0.196

Further values, each from its own experiment
Substance	target	assay	system	setting	how to read	measurement	result
PhoQ, residues 284 288 289 292 302 303 ASHLAV	PhoP, residues 12 14 15 18 19 AQALL (Escherichia coli, UniProt P23836)	Sort-seq, refers to: YFP reporter	E. coli	PhoQ-PhoP variant library, added: 10 µM Mg2+	baseline: high Mg2+ state, higher = stronger signaling	fold induction	2.04

Repeated from above (study 2):
Strand	E-score
CGACGTCA	0.103
GGTAAATA	-0.00483
CACGAGCG	-0.0651
AGACTACG	-0.141
AGTTCGGC	0.0532
